Experimental data gathered from unrelated publications.
Each numbered part is a random draw from the data of one study; scales do not carry over between parts. Substitutions count along the parent as printed.
Sequence of UniProt Q16832 (whole entry, looked up): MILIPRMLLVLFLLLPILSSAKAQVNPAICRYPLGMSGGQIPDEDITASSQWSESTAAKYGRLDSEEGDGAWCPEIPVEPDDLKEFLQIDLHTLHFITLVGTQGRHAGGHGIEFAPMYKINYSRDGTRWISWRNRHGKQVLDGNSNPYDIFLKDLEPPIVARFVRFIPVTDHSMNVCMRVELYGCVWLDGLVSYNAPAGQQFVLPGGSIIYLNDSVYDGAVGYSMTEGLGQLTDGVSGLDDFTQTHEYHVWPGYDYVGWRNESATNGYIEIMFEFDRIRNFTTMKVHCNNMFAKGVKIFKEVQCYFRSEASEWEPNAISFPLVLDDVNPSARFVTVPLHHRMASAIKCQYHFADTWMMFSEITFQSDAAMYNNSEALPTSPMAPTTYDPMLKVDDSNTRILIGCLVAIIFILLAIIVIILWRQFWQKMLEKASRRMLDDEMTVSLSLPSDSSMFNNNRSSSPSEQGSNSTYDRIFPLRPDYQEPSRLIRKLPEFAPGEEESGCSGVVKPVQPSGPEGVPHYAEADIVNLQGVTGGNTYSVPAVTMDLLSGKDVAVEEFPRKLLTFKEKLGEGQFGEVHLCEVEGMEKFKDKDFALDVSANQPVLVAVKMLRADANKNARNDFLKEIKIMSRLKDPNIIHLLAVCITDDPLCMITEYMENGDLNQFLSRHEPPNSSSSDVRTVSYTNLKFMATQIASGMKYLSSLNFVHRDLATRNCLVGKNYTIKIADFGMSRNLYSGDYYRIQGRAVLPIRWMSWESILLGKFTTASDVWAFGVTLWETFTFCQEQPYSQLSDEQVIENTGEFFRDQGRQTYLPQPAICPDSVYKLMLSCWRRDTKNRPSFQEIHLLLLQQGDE

Study 1
Target: Runt-related transcription factor 1, full length (RUNX1, Homo sapiens, UniProt Q01196-8, residues 1-480)
Method: protein-binding microarray
Form: hairpin DNA
Matrix: in vitro
Concentration: not given
Notes: whole hairpin DNA, median over replicate spots
Reference: not given
Direction: higher = stronger binding
| Strand | median fluorescence [a.u.] |
| --- | --- |
| GAGGCCCCGCCGCAACAGCCTCCTGGCTGTTGCGGCGGGGCCTCACACTC (5mC at 8 36) | 2390 |
| GAGGCCTGTCGCGGTTAGCCTCCTGGCTAACCGCGACAGGCCTCACACTC | 4090 |
| GAGGCCTGTTGTGGTTGGCCTCCTGGCCAACCACAACAGGCCTCACACTC (5mC at 32) | 1770 |
| GAGGCCTGTCGTGGTTGGCCTCCTGGCCAACCACGACAGGCCTCACACTC (5mC at 10) | 3010 |
| GAGGCCTGCGGTGGTTGGCCTCCTGGCCAACCACCGCAGGCCTCACACTC (5mC at 9) | 2410 |
| GAGGCCTGTCGCGCGTGGCCTCCTGGCCACGCGCGACAGGCCTCACACTC (5mC at 14) | 1990 |
| CTCAGTTCTGTGGGCCGGACTCCTGTCCGGCCCACAGAACTGAGACACTC (5mC at 28) | 1970 |
| GAGGCCTGGTGCGGTTGGCCTCCTGGCCAACCGCACCAGGCCTCACACTC (5mC at 36) | 3330 |

Study 2
Target: PABPC1L2, full length, GST fusion (mouse, UniProt A0ABA7IW68)
Method: RNAcompete
Form: RNA
Matrix: in vitro
Concentration: 20 nM
Notes: 7-mer, probes averaged, single round
Reference: mean of 7-mers
Direction: higher = stronger binding
Construct (chain): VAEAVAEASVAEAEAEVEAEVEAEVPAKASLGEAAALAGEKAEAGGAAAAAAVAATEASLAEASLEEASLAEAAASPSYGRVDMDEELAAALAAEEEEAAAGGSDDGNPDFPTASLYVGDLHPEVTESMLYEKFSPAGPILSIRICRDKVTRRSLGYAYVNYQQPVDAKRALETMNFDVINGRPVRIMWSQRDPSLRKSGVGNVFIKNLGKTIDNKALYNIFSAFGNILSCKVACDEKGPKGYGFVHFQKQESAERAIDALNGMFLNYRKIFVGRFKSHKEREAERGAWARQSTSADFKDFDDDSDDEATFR
| Strand | 7-mer Z-score |
| --- | --- |
| UAGGCUA | -0.0482 |
| GGGUCUC | -0.0808 |
| AGGAUGG | 0.314 |
| CAUAAAG | 2.08 |
| GCUGACU | -0.0645 |
| CUUCGCU | -0.416 |
| UUAAAAC | 1.12 |
| GUGCUGG | -0.00108 |

Study 3
Target: ABI1, truncated, D143A, DHFR fusion (Arabidopsis thaliana)
Method: DHFR PCA, deep sequencing
Matrix: yeast
Notes: methotrexate growth selection, single substitutions
Added: (+)-ABA 4.8 µM
Reference: wild-type fitted maximum
Direction: higher = stronger binding
Starting sequence: PYL1, truncated, DHFR fusion (Arabidopsis thaliana); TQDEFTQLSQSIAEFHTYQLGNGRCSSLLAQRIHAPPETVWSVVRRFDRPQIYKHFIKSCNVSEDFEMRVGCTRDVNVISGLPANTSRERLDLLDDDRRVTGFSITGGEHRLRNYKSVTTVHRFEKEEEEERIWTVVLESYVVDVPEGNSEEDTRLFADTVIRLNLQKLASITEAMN; partner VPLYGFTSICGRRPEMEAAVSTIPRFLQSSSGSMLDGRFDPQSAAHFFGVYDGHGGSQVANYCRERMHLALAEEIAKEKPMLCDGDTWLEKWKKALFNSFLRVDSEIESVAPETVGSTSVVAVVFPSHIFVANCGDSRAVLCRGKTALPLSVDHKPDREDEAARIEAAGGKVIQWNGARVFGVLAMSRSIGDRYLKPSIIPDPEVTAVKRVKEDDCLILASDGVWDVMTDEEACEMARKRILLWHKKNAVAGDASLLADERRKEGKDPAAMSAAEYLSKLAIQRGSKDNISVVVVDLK
| Substitution | relative binding score |
| --- | --- |
| N85C | 68.7% |
| G71E | -8.88% |
| Q2M | 81.6% |
| F5I | 69.3% |
| C25S | 19.5% |
| G108T | -0.826% |
| Y53S | -5.09% |
| P37Y | -1.19% |

Mixed results
| Structure (SMILES) | target | effect on | method | concentration | measurement | result |
| --- | --- | --- | --- | --- | --- | --- |
| O=C(O)[C@@H]1[C@@H](Cn2nnc3ccccc3c2=O)CC[C@H]1C(=O)c1ccc(OCCC2CCOCC2)cc1 | Discoidin domain-containing receptor 2 (DDR2, Homo sapiens, UniProt Q16832) | cell-free assay | competition with immobilised ligand | 1 µM | remaining binding | 100% |

Excerpt of the above (study 1):
| Strand | median fluorescence [a.u.] |
| --- | --- |
| GAGGCCTGGTGCGGTTGGCCTCCTGGCCAACCGCACCAGGCCTCACACTC (5mC at 36) | 3330 |
| GAGGCCTGTCGCGGTTAGCCTCCTGGCTAACCGCGACAGGCCTCACACTC | 4090 |
| GAGGCCTGTTGTGGTTGGCCTCCTGGCCAACCACAACAGGCCTCACACTC (5mC at 32) | 1770 |
| CTCAGTTCTGTGGGCCGGACTCCTGTCCGGCCCACAGAACTGAGACACTC (5mC at 28) | 1970 |
